Values quoted from earlier work as cited in several papers.
Compare with care: the assays were run in different laboratories. ± marks the error that the study gave.

Cc1ccc2c(n1)c1nc(C)ccc1c1nc3cc4ccccc4cc3nc21.[Ru+2].c1ccc(-c2cccc(-c3ccccn3)n2)nc1.c1ccncc1 — EC50 (MDA-MB-231; cell viability; light irradiation): 4600 nM
C[C@@H](Nc1c(-c2c(F)cc(C#CCCN)cc2F)c(Cl)nc2ncnn12)C(C)(C)C — acetylated α-tubulin level (HEK293; 10 µM, 4 h, unit not given; reference: vehicle (DMSO)): 3.66 ± 0.58
CC(C)C[C@@H]1NC(=O)[C@H](C(C)C)NC(=O)[C@H](CCCNC(=N)N)NC(=O)[C@@H](N)CSSC[C@@H](C(=O)O)NC(=O)[C@H](CO)NC(=O)CNC(=O)[C@H](CO)NC(=O)[C@H](CCCNC(=N)N)NC1=O — cell binding (J774.A1; concentration not given): binds
C[C@H](Nc1c(-c2c(F)cc(OCCCN)cc2F)c(Cl)nc2ncnn12)C(F)(F)F — acetylated α-tubulin level (HEK293; 10 µM, 4 h, unit not given; reference: vehicle (DMSO)): 0.92 ± 0.35
CCC1=C(C)C2=C(c3ccc([P+](C)(C4CCCCC4)C4CCCCC4)cc3)c3c(C)c(CC)c(C)n3[B-](C)(C)[N+]2=C1C — fluorescence intensity decrease (H9c2; mitochondrial depolarisation response): > 70%
Oc1cccc(-c2cccc(O)n2)n1.[Cl-].[Cl-].[Ru+2].c1cnc2c(c1)c1c(c3cccnc32)OCCO1.c1cnc2c(c1)c1c(c3cccnc32)OCCO1 — phototoxicity index (MCF-10A; reference: dark IC50 over light IC50): 2
CC(C)(C)c1cc(C(=O)OC[C@H]2O[C@H](O[C@H]3O[C@H](COC(=O)c4cc(C(C)(C)C)cc(C(C)(C)C)c4O)[C@@H](O)[C@H](O)[C@H]3O)[C@H](O)[C@@H](O)[C@@H]2O)c(O)c(C(C)(C)C)c1 — concentration inducing Th17 cytokines (human PBMC; item: IL-1β, IL-6, IL-23, TNF-α): < 1 µM
CC[C@H](C)[C@@H]1NC(=O)[C@H](CC(=O)O)NC(=O)[C@H](CC(=O)O)NC(=O)CNC(=O)[C@@H]2CCCN2C(=O)[C@H](CC(=O)O)NC(=O)[C@H](Cc2ccc(O)cc2)NC(=O)[C@H]([C@@H](C)CC)NC(=O)[C@@H](N)CCC(=O)NCCCC[C@@H](C(=O)O)NC1=O — inhibition (Caco-2 and Jurkat; cell adhesion; 180 µM; reference: control peptide): ~70%
Oc1cccc(-c2cccc(O)n2)n1.[Cl-].[Cl-].[Ru+2].c1cnc2c(c1)ccc1cccnc12.c1cnc2c(c1)ccc1cccnc12 — phototoxicity index (MCF-10A; reference: dark IC50 over light IC50): 9
COc1cc2c(cc1C)NC(=O)/C2=C/c1c(Cl)[nH]c2cc(C)c(OC)cc12 — GI50 (NCI-60 panel; mean over panel): 2000 nM
C[C@@H](Nc1c(-c2c(F)cc(OCCCO)cc2F)c(Cl)nc2ncnn12)C(C)(C)C — acetylated α-tubulin level (HEK293; 10 µM, 4 h, unit not given; reference: vehicle (DMSO)): 8.92 ± 0.36
COc1ccc(Cn2cc3c(c2-c2cc(OC)c(OC)c(OC)c2)CCc2cnoc2-3)cc1OC — potentiation (multidrug-resistant cells; concentration not given, together with: vincristine): 60%
COc1c(O)cc2oc3cc(O)c(CC=C(C)C)c(O)c3c(=O)c2c1CC=C(C)C — protein expression (MCF7; item: ERα and pS2; 10 µM, 48 h): decreased
CC1=C(C)C(=O)OC(C(C)(O)C2CCC3C4CC5OC56C(O)C=CC(=O)C6(C)C4CC(O)C32C)C1 (centres unmarked) — IC50 (K-562R; cell growth): 1540 nM
Clc1ccccc1C(c1ccccc1)(c1ccccc1)n1cc[n+]([Pd-2]([Cl])([Cl])[n+]2ccn(C(c3ccccc3)(c3ccccc3)c3ccccc3Cl)c2)c1 — antiproliferative activity (human tumour cell line panel; concentration not given): inactive
CN(C)CCCOc1cc(F)c(-c2c(Cl)nc3ncnn3c2NCC(C)(C)C)c(F)c1 — total α-tubulin level (HEK293; 1 µM, 4 h, unit not given; reference: vehicle (DMSO)): 0.69 ± 0.03
O=C1c2ccccc2-c2c1c1ccccc1c(=O)n2C[C@H](O)[C@@H](O)[C@@H](O)[C@H](O)CO — mean growth (60 cancer cell lines; cell growth; 10 µM): 68%
C=CC(=O)Nc1ccccc1Nc1nc(Nc2ccnc(C#CCCNC(=O)OC3CC/C=C/CCC3)c2)ncc1Cl (centres unmarked) — GI50 (A-375): 470 ± 160 nM
O=C(Nc1cccc(Br)c1)Nc1cc(Oc2ccc3nc(NC(=O)C4CC4)sc3c2)ccc1F — EC50 (HT-29; necroptosis): 440 nM
CNCCCOc1cc(F)c(-c2c(Cl)nc3ncnn3c2N[C@@H](C)C(F)(F)F)c(F)c1 — acetylated α-tubulin level (HEK293; 1 µM, 4 h, unit not given; reference: vehicle (DMSO)): 6.98 ± 0.91
O=C1c2ccccc2-c2c1c1ccc([N+](=O)[O-])cc1c(=O)n2C[C@H](O)[C@@H](O)[C@H](O)[C@H](O)CO — mean growth (60 cancer cell lines; cell growth; 10 µM): 58%
CN(C)CCCOc1cc(F)c(-c2c(Cl)nc3ncnn3c2NCC2(C)CC2)c(F)c1 — acetylated α-tubulin level (HEK293; 1 µM, 4 h, unit not given; reference: vehicle (DMSO)): 2.81 ± 0.35
O=C1c2ccccc2-c2c1c1ccccc1c(=O)n2C[C@H](O)[C@H](O)[C@H](O)CO — mean growth (60 cancer cell lines; cell growth; 10 µM): 17.3%
O=[N+]([O-])c1cccc(-c2nn(-c3ccccc3)cc2-c2cc(-c3ccccn3)nc3ncnn23)c1 — inhibition (MCF7; VEGFR2 expression; concentration not given): 63%
CCOC(=O)N1CCC(C)(c2cc(O)n3nc(C)c(-c4ccc(C(F)(F)F)cc4)c3n2)CC1 — cell proliferation (gastric cancer cells; concentration not given): decreased
CCn1cc(-c2cc(Cn3ccnc3)cc3c2CCN([C@H](c2cc(OC)ccn2)C2CC2)C3=O)c(C(F)(F)F)n1 — GI50 (MV4-11; cell proliferation): 19 ± 5.2 nM
CCOc1ccccc1 — cytotoxicity activity class (MOLM-13; concentration not given): inactive
O=C1NCCN1CC(O)Cn1c2ccc(F)cc2c2cc(F)ccc21 (centres unmarked) — EC50 (glioblastoma stem cells; viability): ≥ 10000 nM
Cc1nc(Nc2ncc(C(=O)Nc3c(C)cccc3Cl)s2)cc(N2CCN(CCCCCCOCCOCCOCCCCCCOCCCCCC(=O)Nc3cccc4c3C(=O)N(C3CCC(=O)NC3=O)C4=O)CC2)n1 (centres unmarked) — EC50 (K562): 4.4 nM

A few entries again:
CCn1cc(-c2cc(Cn3ccnc3)cc3c2CCN([C@H](c2cc(OC)ccn2)C2CC2)C3=O)c(C(F)(F)F)n1 — GI50 (MV4-11; cell proliferation): 19 ± 5.2 nM
CCOC(=O)N1CCC(C)(c2cc(O)n3nc(C)c(-c4ccc(C(F)(F)F)cc4)c3n2)CC1 — cell proliferation (gastric cancer cells; concentration not given): decreased
